Results of several laboratories.
Lines come from different studies, so protocols differ. pIC50: −log10 of the molar value.
UniProt P48047, sequence (whole entry, looked up): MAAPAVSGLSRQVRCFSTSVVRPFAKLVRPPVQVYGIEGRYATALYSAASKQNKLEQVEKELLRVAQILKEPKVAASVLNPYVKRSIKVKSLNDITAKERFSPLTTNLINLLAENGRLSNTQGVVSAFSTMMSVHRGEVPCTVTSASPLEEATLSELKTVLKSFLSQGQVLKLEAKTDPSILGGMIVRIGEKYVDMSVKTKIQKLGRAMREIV

`Cc1ccc(F)c2cc(C(=O)N[C@@H]3CCC[C@H](N4CC[C@H](N(C)S(C)(=O)=O)C4)C3)[nH]c12` has an AUC(0-inf) of 2680 ng·h/mL (CD1 mouse; oral, 30 mg/kg).
Under “AST increased, any grade”, `C=CC(=O)N1CC[C@H](n2nc(C#Cc3cc(OC)cc(OC)c3)c3c(N)ncnc32)C1` is recorded as 20.8% (human patients; oral, dose not given, QD regimen, adverse drug reaction, added: lanthanum carbonate hydrate).
The TRAE incidence of `CO[C@H]1C[C@@H]2CC[C@@H](C)[C@@](O)(O2)C(=O)C(=O)N2CCCC[C@H]2C(=O)O[C@H]([C@H](C)C[C@@H]2CC[C@@H](OC(=O)NCCOCCOCCOCCOCCOCCOCCOCCOCCC(=O)N3CCc4cc(Cn5nc(-c6ccc7oc(N)nc7c6)c6c(N)ncnc65)ccc4C3)[C@H](OC)C2)C[C@@H](O)[C@H](C)/C=C(\C)[C@@H](O)[C@@H](OC)C(=O)[C@H](C)C[C@H](C)/C=C/C=C/C=C/1C` is reported as 8.3% (phase 1 dose escalation, refers to: rash; advanced solid tumour patients; intravenous, 12 mg weekly, any grade).
Under “patients with dysgeusia”, `COc1ncnn2ccc(-c3cnc4nc(C)n(Cc5nnc([C@@H](C)F)o5)c4c3)c12` is recorded as 7.1% (human; oral, dose not given, grade 2).
For `O=S(=O)(Nc1ccccc1)c1ccc(NC(=S)Nc2ccccc2)cc1`, “relative organ weight” read 1.77% (mouse, male, kidney; oral, 5 mg/kg daily, 14 days; relative to: body weight).
`O=C(c1ccc(F)c(F)c1Nc1ccc(I)cc1F)N1CC(O)([C@@H]2CCCCN2)C1` gave an adverse events of 100% (patients aged sample A to sample B years; oral, dose not given).
`C[C@H]1CN(c2n[nH]c3nc(N[C@H]4CC[C@H](NS(=O)(=O)CCC(F)(F)F)CC4)ncc23)CCO1` gave a pIC50 of ≤ 4.70 (ATP synthase peripheral stalk subunit OSCP, mitochondrial (Homo sapiens, UniProt P48047); biochemical).
Under “grade 1 or 2 Hyperuricemia”, `COc1cc2c(Oc3ccc4[nH]c(C)cc4c3F)ccnc2cc1OCC1(N)CC1` is recorded as 18.2% (paediatric recurrent refractory sarcoma; 12 mg).
`CN1CC[C@@H](c2c(O)cc(O)c3c(=O)cc(-c4ccc(C(F)(F)F)cc4Cl)oc23)[C@@H]1CO`: “patients with adverse event” 0% (refers to: Chills; B-cell malignancies; oral, 100 mg, intermittent dosing).
For `O=C1Nc2cc3[nH]nc(-c4ccncc4)c3cc2CN1Cc1ccccc1`, “patients with headache” read 25% (CTCAE v4.03; advanced solid tumour patients; intravenous, 4.8 mg/kg, schedules 1/2).
`C[C@]1(CO)Cc2ncn(-c3ccc(C#N)c(Cl)c3)c2C(=O)O1` has a half-life of 4.5 h (human, plasma; 20 mg, first dose fasted).
